Measurements pooled from the literature.
Numbered parts are unrelated; each lists some results of a single study. Positions count from the first letter of the parent shown.

Series 1
Target: CCNE1, cyclin fold, Cln2 fusion (human)
Technique: yeast growth competition, sequencing
Matrix: yeast
Notes: strong parent motif
Reference: not given
Direction: higher = stronger binding
Starting sequence: CDKN1A docking peptide (human); SKACRRLFGPVDS
| Substitution | normalised enrichment score |
| --- | --- |
| SKACRGLFGPVDS [R6G] | 0.243 |
| SKACRRLKGPVDS [F8K] | 0.108 |
| SKACDRLFGPVDS [R5D] | -0.432 |
| SKACMRLFGPVDS [R5M] | 0.251 |
| SKACRRIFGPVDS [L7I] | 1.45 |
| SKACFRLFGPVDS [R5F] | 0.0695 |
| SKACRRLFGPHDS [V11H] | 5.38 |
| SKACGRLFGPVDS [R5G] | 0.357 |
| SKACRRLFGPIDS [V11I] | 5.43 |
| SKACRSLFGPVDS [R6S] | 1.67 |
| SKLCRRLFGPVDS [A3L] | 0.919 |
| SKACQRLFGPVDS [R5Q] | 0.338 |
| SKACRRLIGPVDS [F8I] | 0.346 |
| SWACRRLFGPVDS [K2W] | 2.98 |
| SKACRRLFLPVDS [G9L] | 5.03 |
| SKACRALFGPVDS [R6A] | 2.26 |
| SKACRRLFGEVDS [P10E] | 5.97 |

Series 2
Target: ABI1, truncated, D143A, DHFR fusion (Arabidopsis thaliana)
Technique: DHFR PCA, deep sequencing
Matrix: yeast
Notes: methotrexate growth selection, single substitutions
With: (+)-ABA 710 µM
Reference: wild-type fitted maximum
Direction: higher = stronger binding
Starting sequence: PYL1, truncated, DHFR fusion (Arabidopsis thaliana); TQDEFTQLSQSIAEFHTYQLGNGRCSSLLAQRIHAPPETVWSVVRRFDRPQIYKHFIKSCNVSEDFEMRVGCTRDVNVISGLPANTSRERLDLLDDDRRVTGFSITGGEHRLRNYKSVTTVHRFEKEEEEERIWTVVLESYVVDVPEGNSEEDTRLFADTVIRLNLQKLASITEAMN; partner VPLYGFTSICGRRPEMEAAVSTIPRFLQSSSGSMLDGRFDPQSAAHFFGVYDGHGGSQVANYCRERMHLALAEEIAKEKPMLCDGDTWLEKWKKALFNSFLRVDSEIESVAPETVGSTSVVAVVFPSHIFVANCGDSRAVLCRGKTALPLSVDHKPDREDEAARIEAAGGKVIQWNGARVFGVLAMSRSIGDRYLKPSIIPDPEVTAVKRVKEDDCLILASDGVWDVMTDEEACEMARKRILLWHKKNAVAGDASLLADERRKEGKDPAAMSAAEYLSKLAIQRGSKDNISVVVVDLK
| Substitution | relative binding score |
| --- | --- |
| F56K | 10.4% |
| R46W | 86.4% |
| L166M | 90.1% |
| R111W | 50% |
| Q167H | 98.9% |
| M176K | 111% |
| V121I | 102% |
| L82E | -2.08% |
| L82H | 30.3% |
| G108Q | 45.9% |
| R123I | 91.4% |
| R32T | 97.1% |
| T160L | 102% |
| G23D | 104% |
| R46F | 57.6% |
| V43I | 106% |

Series 3
Target: RNA binding protein fox-1 homolog 2, RRM domain, GST-SBP tag (RBFOX2, Homo sapiens, UniProt O43251-10, residues 100-194)
Technique: RNA Bind-n-Seq
Molecule type: RNA
Matrix: in vitro
Tested at: 365 nM
Notes: natural RNA segment, single round, ends assumed
Reference: no-protein control
Direction: higher = stronger binding
Constant ends, left off below: GGGAGUUCUACAGUCCGACGAUC … UGGAAUUCUCGGGUGCCAA
Target sequence (chain): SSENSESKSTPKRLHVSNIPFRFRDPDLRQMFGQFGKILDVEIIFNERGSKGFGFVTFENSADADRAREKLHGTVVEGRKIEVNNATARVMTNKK
| Oligonucleotide | RBNS enrichment (R) |
| --- | --- |
| AUUUAAAAGUCACAAAGUCAUUUAUAAAAAAUGAAGUGAUUAAAUAUUGACCGAGUAUUGUUGAGUAUUGCUAGAGUAGCUAGUUAUCUGGUGAGACUGCUAAUUGAUUC | 1.57 |
| UAUAAGCUCUUAAAAUGAGAAUGGAAGUGUCAGUAUAGACCCAGUGUACUUAAGUGCUGAUGACUGUUAGCCAGUUUACAACUUUUUACCAUCGAUGUACACAUUUGAUA | 0.438 |
| AAGUGCUUUUUUGCAGUCUCCUUUGUUGCUGAUUUCAUGUGUCCGAUUCCUUCUGUAUGUCAUUCUUGUUAACAAGACCAUAACCUCCCCGACCUGACACCUCAUAUGAU | 0.447 |
| GGUGGUGAUGCAACUGGGGGCUUACUCUGAGGAAACCUAGGAAAUCUCGGUGCACUAGGAAGUGAAUCCCGCAGGACAGCUGCACUCAGGGAUACGCCCAACACCAUGGC | 0.682 |
| UUUGCAGCCCCCAGAGGACCUUGCCUGCAUAAAGCACUCAGAAGGGUUAGCCACCUGGUGAUUUUGUCUCUAGUGAAACUGUGUUUGCCGAUAAUCAUCCACAUAGCCAC | 1.22 |
| UACUUUAGAAACAAAUGAAAAAGGCAAUUGAAAAUCCCAGCUAUUUCACCUAGAUGGAAUAGCCACCCUGAGCAGAACUUUGUGAUGCUUCAUUCUGUGGAAUUUUGUGC | 0.417 |
| UUAUAAACUAUCUGUAGCAAUUAGGGUUUUUAUUUUACAUUAAAAAUGUAAACUGCUCCCCCUCUCCCUUGCAGCCCUACGUGUUGAGGUUCUCUUGCAAUCUGUGUUAA | 0.382 |
| AAGGUGAAGAAUGAAGGCGAAGAGGCAGACUCCUACCCCGACACCCUCCCUGCCUGUUCCUGCCUCCUGCACCCUCCCCAGCACCUGCCACACUGACUAUGUCUUUAGGA | 0.704 |
| UGCUUCGCUUGUUUGUAAGGAGAAAUGCAUCUGGUUAUGUGAAUUUCCCGAGAGCAGCAGACAUGGAGGGCCAGACUUUAAAAGCAACGCAAGCAGAUUCGAAGAGCUGU | 1.02 |
| UUCCUUUCCUCCUCUCAGUGUCCUCAGCACCCACAAGGAAUUUUCCUAUCACUGUGAACUUUGCUGGUACAGAGGAAUAAUAUCUGCCUUCACCUUUUUUUUUUUGGACC | 0.847 |
| GUCCCAGACAGCACAGGUCAAGCAGCGUGGGACUGUGGAGCCCCUGGCAGGCUGGCCUGGUGCUGCCCCCUUAGCCCAGAAGCCCUGCCAGGUCCAGUGGCCUGGGGUCC | 0.207 |
| AAAUCCUAAUUCAAAGAUGGCUCAUGUGUGAGGGCAUUGAGUUUGAUUUGUUUUCCCUUUGGUCUGGGUUGUGUGGCUUUUGGGGGAUGCGUGUGAGGGGGCUAUGUGUU | 2.28 |

Series 4
Target: NFE2, bZIP domain (human)
Technique: DHFR protein complementation
Matrix: yeast
Notes: single substitutions, most at no-binding floor
Reference: wild-type JUN-FOS pair
Direction: higher = stronger binding
Starting sequence: JUN, bZIP domain (human); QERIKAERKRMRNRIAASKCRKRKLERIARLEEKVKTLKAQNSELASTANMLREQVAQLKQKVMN; partner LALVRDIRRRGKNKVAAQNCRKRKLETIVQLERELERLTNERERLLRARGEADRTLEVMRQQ
| Substitution | binding fitness |
| --- | --- |
| S47G | -1.37 natural log |
| L38C | -1.41 natural log |
| N42A | -1.25 natural log |
| M51G | -1.33 natural log |
| I28R | -1.31 natural log |
| Q41N | -1.49 natural log |
| Q55H | -1.54 natural log |
| L52E | -1.29 natural log |
| L45C | -1.5 natural log |
| T37E | -1.45 natural log |
| L31Q | -1.64 natural log |
| E44V | -1.45 natural log |
| E32I | -1.41 natural log |
| E44A | -1.48 natural log |

Excerpt of the above (series 4):
| Substitution | binding fitness |
| --- | --- |
| T37E | -1.45 natural log |
| L31Q | -1.64 natural log |
| E44V | -1.45 natural log |
| E32I | -1.41 natural log |
